{"data": "Experimental data pooled from the literature", "note": "Lines come from different studies, so protocols differ. ± gives the spread as reported.", "UniProt Q06151, sequence (whole entry, unmodified, looked up)": "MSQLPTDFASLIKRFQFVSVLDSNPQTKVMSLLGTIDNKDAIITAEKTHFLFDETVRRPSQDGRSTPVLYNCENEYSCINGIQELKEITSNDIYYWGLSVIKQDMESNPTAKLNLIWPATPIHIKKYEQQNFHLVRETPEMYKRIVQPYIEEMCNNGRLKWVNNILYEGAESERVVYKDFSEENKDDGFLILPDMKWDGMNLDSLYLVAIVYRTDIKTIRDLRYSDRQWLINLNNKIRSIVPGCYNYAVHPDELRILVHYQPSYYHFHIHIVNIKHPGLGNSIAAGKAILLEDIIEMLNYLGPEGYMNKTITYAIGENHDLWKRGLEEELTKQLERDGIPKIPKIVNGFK", "UniProt P10635, sequence (whole entry, looked up)": "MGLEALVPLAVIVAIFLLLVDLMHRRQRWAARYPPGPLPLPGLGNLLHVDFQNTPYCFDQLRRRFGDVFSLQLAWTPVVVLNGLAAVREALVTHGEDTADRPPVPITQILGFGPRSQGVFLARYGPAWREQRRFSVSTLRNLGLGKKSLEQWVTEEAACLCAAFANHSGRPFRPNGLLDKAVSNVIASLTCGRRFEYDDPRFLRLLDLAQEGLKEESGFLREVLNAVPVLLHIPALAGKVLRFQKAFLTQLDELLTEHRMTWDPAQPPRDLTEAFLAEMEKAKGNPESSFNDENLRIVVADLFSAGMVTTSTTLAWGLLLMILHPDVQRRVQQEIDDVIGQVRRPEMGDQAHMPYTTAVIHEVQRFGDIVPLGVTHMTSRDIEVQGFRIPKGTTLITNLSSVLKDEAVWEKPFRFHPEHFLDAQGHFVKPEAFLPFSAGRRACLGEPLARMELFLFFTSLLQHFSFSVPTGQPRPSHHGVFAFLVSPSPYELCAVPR", "UniProt Q68CZ2, sequence (whole entry, looked up)": "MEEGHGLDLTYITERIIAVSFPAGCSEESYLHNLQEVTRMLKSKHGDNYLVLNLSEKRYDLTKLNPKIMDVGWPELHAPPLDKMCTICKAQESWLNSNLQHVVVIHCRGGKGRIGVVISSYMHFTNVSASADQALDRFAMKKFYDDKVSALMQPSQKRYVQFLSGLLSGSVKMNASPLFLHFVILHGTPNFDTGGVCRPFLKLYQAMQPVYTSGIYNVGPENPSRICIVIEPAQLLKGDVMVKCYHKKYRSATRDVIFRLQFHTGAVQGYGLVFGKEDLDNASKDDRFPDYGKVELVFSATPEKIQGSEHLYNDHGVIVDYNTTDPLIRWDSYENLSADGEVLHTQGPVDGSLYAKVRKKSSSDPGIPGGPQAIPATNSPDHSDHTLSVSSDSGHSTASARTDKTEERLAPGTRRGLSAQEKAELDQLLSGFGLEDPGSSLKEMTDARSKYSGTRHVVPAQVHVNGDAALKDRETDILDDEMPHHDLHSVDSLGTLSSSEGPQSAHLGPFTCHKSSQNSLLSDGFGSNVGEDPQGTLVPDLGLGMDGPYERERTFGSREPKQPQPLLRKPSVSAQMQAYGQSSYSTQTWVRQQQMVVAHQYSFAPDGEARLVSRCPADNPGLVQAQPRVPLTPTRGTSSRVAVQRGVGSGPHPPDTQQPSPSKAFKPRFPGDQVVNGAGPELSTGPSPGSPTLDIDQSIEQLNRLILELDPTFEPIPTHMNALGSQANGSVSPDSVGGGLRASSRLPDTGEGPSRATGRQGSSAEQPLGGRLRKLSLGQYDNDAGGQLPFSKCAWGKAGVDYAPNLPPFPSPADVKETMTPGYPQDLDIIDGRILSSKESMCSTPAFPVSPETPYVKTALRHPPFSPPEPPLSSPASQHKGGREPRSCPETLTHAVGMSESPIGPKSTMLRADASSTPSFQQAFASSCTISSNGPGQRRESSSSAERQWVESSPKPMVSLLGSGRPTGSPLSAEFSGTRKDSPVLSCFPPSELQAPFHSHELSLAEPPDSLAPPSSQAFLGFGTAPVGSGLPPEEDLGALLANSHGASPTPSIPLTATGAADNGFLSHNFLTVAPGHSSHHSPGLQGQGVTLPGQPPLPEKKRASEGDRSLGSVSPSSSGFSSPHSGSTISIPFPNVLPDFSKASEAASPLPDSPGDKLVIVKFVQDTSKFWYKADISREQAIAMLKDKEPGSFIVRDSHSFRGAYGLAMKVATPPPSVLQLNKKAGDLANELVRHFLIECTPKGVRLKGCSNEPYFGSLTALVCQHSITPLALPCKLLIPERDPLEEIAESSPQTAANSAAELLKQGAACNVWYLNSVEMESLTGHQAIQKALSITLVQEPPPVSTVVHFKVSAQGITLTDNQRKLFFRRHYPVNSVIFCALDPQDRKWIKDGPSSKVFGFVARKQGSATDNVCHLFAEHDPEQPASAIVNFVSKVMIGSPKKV", "UniProt P48047, sequence (whole entry, looked up)": "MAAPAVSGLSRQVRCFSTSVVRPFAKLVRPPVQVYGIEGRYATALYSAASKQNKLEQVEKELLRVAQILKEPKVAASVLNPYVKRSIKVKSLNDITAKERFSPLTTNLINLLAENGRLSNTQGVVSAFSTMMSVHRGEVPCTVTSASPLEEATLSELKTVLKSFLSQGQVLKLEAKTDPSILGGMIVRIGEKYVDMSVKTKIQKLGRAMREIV", "UniProt P50052, sequence (whole entry, looked up)": "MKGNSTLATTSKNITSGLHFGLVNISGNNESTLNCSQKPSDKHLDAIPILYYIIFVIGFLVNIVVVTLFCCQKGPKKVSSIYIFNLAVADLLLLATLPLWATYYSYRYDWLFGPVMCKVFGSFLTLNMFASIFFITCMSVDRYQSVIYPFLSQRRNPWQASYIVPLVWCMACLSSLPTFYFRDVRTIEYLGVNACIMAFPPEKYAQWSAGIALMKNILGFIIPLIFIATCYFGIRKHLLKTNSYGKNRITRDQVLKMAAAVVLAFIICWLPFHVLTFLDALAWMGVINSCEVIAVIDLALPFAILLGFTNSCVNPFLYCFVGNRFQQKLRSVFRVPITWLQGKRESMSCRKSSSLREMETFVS", "UniProt Q9UNU6, sequence (whole entry, looked up)": "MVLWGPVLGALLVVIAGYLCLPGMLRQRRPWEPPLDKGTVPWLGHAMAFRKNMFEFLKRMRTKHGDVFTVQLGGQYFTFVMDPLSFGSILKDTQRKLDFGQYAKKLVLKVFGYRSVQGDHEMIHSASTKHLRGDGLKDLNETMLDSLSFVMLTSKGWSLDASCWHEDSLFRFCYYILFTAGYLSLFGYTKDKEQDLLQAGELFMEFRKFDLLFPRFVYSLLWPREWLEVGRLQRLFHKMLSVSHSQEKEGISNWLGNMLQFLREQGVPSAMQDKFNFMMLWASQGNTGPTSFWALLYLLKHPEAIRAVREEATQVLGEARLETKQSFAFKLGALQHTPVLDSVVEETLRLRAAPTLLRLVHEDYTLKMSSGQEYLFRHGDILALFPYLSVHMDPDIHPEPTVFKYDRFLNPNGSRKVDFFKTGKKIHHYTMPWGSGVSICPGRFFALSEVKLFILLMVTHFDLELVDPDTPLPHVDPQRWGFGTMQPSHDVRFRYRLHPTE"}
{"SMILES": "CC[C@H](C)[C@@H]1NC(=O)[C@@H]2CCCN2C(=O)[C@H](CC(C)C)NC(=O)[C@H](CC(C)C)NC(=O)CNC(=O)[C@@H](NC(=O)[C@@H](NC(=O)[C@H](CC(=O)O)NC(=O)CNC(=O)[C@@H](NC(=O)[C@H](C)NC(=O)CNC(=O)[C@H](CCCCN)NC(=O)[C@H](CC(C)C)NC(=O)[C@H](CC(C)C)NC(=O)[C@H](CCCCN)NC(=O)CNC(=O)[C@@H](NC(=O)[C@@H](N)CC(C)C)C(C)C)C(C)C)C(C)C)CSSC[C@@H](C(=O)O)NC1=O", "assay": "RNA-seq, item: H2-T23 mRNA", "test system": "mouse traumatic brain injury, frontal cortex and hippocampus", "setting": "dose not given", "scale": "relative to: TBI plus compound vs TBI", "quantity": "log2 fold change", "value": -1.58}
{"SMILES": "C[C@H]1CN(c2n[nH]c3nc(N[C@H]4CC[C@H](NS(=O)(=O)CCC(F)(F)F)CC4)ncc23)CCO1", "target or system": "ATP synthase peripheral stalk subunit OSCP, mitochondrial (Homo sapiens, UniProt P48047)", "assay": "Kinobeads competition, item: ATP5O", "setting": "20 µM, unit not given", "scale": "relative to: vehicle", "quantity": "remaining binding", "value": 1.24}
{"SMILES": "COc1cc(Nc2ncc(F)c(Nc3ccc4c(n3)NC(=O)C(C)(C)O4)n2)cc(OC)c1OC", "target or system": "Type-2 angiotensin II receptor (AGTR2, Homo sapiens, UniProt P50052)", "quantity": "IC50", "value": "> 10 µM"}
{"SMILES": "CCCCCCCCCC(=O)CC(=O)N[C@H]1CCOC1=O", "target or system": "qscR, DNA-bound (Pseudomonas aeruginosa, UniProt G3XD77)", "assay": "DNA binding, ligand, EMSA", "setting": "4 °C, saturating ligand", "quantity": "Kd", "value": "0.00701 µM"}
{"SMILES": "CCC1COC(Cn2cncn2)(c2ccc(Cl)cc2Cl)O1 (stereo not drawn)", "target or system": "Cytochrome P450 2D6 (CYP2D6, Homo sapiens, UniProt P10635)", "assay": "binding", "setting": "20 min, pH 7.4, purified protein, 2% DMSO", "quantity": "Kd", "value": "73.3 µM"}
{"SMILES": "CC(=O)N[C@H]1[C@@H](O[C@H]2[C@@H](O)[C@@H](CO)OC(O)[C@@H]2NC(C)=O)O[C@H](CO)[C@H](O)[C@@H]1O (stereo partly drawn)", "target or system": "Vicia villosa lectin", "assay": "binding", "setting": "2 h", "quantity": "Kd", "value": "> 0.342 µM"}
{"SMILES": "N=C(N)N", "target or system": "Gdx-Clo mutant A60T/A67I/K101N", "assay": "tryptophan fluorescence", "setting": "from pH dependence fit", "quantity": "Kd", "value": "88 µM"}
{"SMILES": "CCCC(=O)CC(=O)N[C@H]1CCOC1=O", "target or system": "qscR, ligand-binding domain (Pseudomonas aeruginosa, UniProt G3XD77)", "assay": "ligand binding, FRET displacement", "setting": "ligand-binding domain", "quantity": "Kd", "value": "0.233 µM"}
{"SMILES": "C[n+]1cn([C@@H]2O[C@H](COP(=O)([O-])O)[C@@H](O)[C@H]2O)c2nc(N)[nH]c(=O)c21", "target or system": "m7GpppX diphosphatase (DCS1, Saccharomyces cerevisiae, UniProt Q06151, H268N)", "assay": "binding, single-step, isothermal titration calorimetry", "setting": "DcpS H268N", "quantity": "Kd", "value": "1.05 µM"}
{"SMILES": "CC(C)(C)C(=O)C(Oc1ccc(Cl)cc1)n1ccnc1 (stereo not drawn)", "target or system": "7-alpha-hydroxycholest-4-en-3-one 12-alpha-hydroxylase (Homo sapiens, UniProt Q9UNU6)", "assay": "binding", "setting": "20 min, pH 7.4", "quantity": "Kd", "value": "65.9 µM"}
{"SMILES": "CO[C@H]1C[C@@H]2CC[C@@H](C)[C@@](O)(O2)C(=O)C(=O)N2CCCC[C@H]2C(=O)O[C@H]([C@H](C)C[C@@H]2CC[C@@H](OC(=O)NCCOCCOCCOCCOCCOCCOCCOCCOCCC(=O)N3CCc4cc(Cn5nc(-c6ccc7oc(N)nc7c6)c6c(N)ncnc65)ccc4C3)[C@H](OC)C2)C[C@@H](O)[C@H](C)/C=C(\\C)[C@@H](O)[C@@H](OC)C(=O)[C@H](C)C[C@H](C)/C=C/C=C/C=C/1C", "assay": "phase 1 dose escalation, item: gastric haemorrhage", "test system": "advanced solid tumour patients", "setting": "intravenous, 6 mg weekly, any grade", "quantity": "dose-reducing adverse events", "value": "0%"}
{"SMILES": "CC(=O)N[C@@H]1[C@@H](O)[C@@H](O)[C@@H](CO)O[C@@H]1O", "target or system": "Helix pomatia agglutinin", "assay": "glycan microarray", "setting": "4 glycans per BSA", "quantity": "Kd", "value": "0.05 ± 0.017 µM"}
{"SMILES": "N=C(N)NCCC[C@H](N)C(=O)O", "target or system": "uncharacterized protein (Pelagibacter ubique, UniProt Q4FLC2)", "assay": "binding, competition isothermal titration calorimetry", "test system": "Candidatus Pelagibacter ubique", "setting": "together with: octopine competitor", "quantity": "Kd", "value": "5.5e-05 ± 3.6e-05 µM"}
{"SMILES": "CC[C@H](C)[C@H](NC(=O)[C@H](Cc1ccc(OP(=O)(O)O)cc1)NC(=O)[C@H](CCC(=O)O)NC(=O)[C@H](Cc1c[nH]cn1)NC(=O)CNC(=O)[C@H](CC(=O)O)NC(=O)[C@H](CO)NC(=O)[C@H](CO)NC(=O)[C@@H](NC(=O)[C@H](CO)NC(=O)[C@H](CCC(=O)O)NC(=O)c1ccc2c(c1)C(=O)OC21c2ccc(N(C)C)cc2Oc2cc(N(C)C)ccc21)C(C)C)C(=O)N[C@@H](Cc1ccc(O)cc1)C(=O)N[C@H](C(=O)N[C@@H](CC(=O)O)C(=O)N1CCC[C@H]1C(=O)N[C@@H](CCSC)C(=O)N[C@@H](CCC(N)=O)C(=O)N[C@@H](CC(=O)O)C(=O)O)C(C)C", "target or system": "Tensin-3, SH2 domain (TNS3, Homo sapiens, UniProt Q68CZ2)", "assay": "binding", "quantity": "Kd", "value": "1.4 µM"}
{"SMILES": "CC[C@H](C)[C@H](NC(=O)[C@H](Cc1ccccc1)NC(=O)[C@H](CCC(=O)O)NC(=O)[C@H](CCCNC(=N)N)NC(=O)[C@H](C)NC(=O)[C@H](C)NC(=O)[C@H](CCC(N)=O)NC(=O)[C@H](CCC(=O)O)NC(=O)[C@H](CCC(=O)O)NC(=O)[C@H](CC(C)C)NC(=O)[C@H](Cc1ccc(O)cc1)NC(=O)[C@H](CO)NC(=O)[C@H](CO)NC(=O)[C@@H](NC(=O)[C@H](CC(=O)O)NC(=O)[C@H](CO)NC(=O)[C@@H](NC(=O)[C@H](Cc1ccccc1)NC(=O)[C@@H](NC(=O)CNC(=O)[C@H](CCC(=O)O)NC(=O)[C@H](C)NC(=O)CCc1c[nH]cn1)[C@@H](C)O)[C@@H](C)O)C(C)C)C(=O)N[C@@H](C)C(=O)N[C@@H](Cc1c[nH]c2ccccc12)C(=O)N[C@@H](CC(C)C)C(=O)N[C@H](C(=O)N[C@@H](CCCNC(=N)N)C(=O)NCC(=O)N[C@@H](CCCNC(=N)N)C(=O)N[C@@H](CCCCNC(=O)COCCOCCNC(=O)COCCOCCNC(=O)CC[C@H](NC(=O)CCCCCCCCCCCCCCCCC(=O)O)C(=O)O)C(=O)NCC(=O)NCC(=O)N[C@@H](CO)C(=O)N[C@@H](CCCCNc1c(NCCCCCN(O)C(=O)CCC(=O)NCCCCCN(O)C(=O)CCC(=O)NCCCCCN(O)C(C)=O)c(=O)c1=O)C(=O)O)C(C)C [zirconium-89 labelled]", "assay": "ex vivo gamma counting", "test system": "rat, skin at injection site", "setting": "subcutaneous, 3 nmol/kg, 168 h", "quantity": "tissue uptake", "value": "0.5 %ID/g"}
{"note": "Excerpt of the above:"}
{"SMILES": "CC(C)(C)C(=O)C(Oc1ccc(Cl)cc1)n1ccnc1 (stereo not drawn)", "target or system": "7-alpha-hydroxycholest-4-en-3-one 12-alpha-hydroxylase (Homo sapiens, UniProt Q9UNU6)", "assay": "binding", "setting": "20 min, pH 7.4", "quantity": "Kd", "value": "65.9 µM"}
{"SMILES": "CCC1COC(Cn2cncn2)(c2ccc(Cl)cc2Cl)O1 (stereo not drawn)", "target or system": "Cytochrome P450 2D6 (CYP2D6, Homo sapiens, UniProt P10635)", "assay": "binding", "setting": "20 min, pH 7.4, purified protein, 2% DMSO", "quantity": "Kd", "value": "73.3 µM"}
